Experimental data of several laboratories.
Each line is one published result; not all experiments were run side by side. Several values in a cell are separate wells, animals, samples, runs or records. ± marks the error that the study gave.
UniProt Q16774, sequence (whole entry, unmodified, looked up): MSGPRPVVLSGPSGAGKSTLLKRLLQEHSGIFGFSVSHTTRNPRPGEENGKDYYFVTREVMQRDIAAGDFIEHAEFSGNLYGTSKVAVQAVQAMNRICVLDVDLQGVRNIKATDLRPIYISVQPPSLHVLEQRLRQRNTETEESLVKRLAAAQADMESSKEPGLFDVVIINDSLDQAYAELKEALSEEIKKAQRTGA
UniProt P11388, sequence (whole entry, looked up): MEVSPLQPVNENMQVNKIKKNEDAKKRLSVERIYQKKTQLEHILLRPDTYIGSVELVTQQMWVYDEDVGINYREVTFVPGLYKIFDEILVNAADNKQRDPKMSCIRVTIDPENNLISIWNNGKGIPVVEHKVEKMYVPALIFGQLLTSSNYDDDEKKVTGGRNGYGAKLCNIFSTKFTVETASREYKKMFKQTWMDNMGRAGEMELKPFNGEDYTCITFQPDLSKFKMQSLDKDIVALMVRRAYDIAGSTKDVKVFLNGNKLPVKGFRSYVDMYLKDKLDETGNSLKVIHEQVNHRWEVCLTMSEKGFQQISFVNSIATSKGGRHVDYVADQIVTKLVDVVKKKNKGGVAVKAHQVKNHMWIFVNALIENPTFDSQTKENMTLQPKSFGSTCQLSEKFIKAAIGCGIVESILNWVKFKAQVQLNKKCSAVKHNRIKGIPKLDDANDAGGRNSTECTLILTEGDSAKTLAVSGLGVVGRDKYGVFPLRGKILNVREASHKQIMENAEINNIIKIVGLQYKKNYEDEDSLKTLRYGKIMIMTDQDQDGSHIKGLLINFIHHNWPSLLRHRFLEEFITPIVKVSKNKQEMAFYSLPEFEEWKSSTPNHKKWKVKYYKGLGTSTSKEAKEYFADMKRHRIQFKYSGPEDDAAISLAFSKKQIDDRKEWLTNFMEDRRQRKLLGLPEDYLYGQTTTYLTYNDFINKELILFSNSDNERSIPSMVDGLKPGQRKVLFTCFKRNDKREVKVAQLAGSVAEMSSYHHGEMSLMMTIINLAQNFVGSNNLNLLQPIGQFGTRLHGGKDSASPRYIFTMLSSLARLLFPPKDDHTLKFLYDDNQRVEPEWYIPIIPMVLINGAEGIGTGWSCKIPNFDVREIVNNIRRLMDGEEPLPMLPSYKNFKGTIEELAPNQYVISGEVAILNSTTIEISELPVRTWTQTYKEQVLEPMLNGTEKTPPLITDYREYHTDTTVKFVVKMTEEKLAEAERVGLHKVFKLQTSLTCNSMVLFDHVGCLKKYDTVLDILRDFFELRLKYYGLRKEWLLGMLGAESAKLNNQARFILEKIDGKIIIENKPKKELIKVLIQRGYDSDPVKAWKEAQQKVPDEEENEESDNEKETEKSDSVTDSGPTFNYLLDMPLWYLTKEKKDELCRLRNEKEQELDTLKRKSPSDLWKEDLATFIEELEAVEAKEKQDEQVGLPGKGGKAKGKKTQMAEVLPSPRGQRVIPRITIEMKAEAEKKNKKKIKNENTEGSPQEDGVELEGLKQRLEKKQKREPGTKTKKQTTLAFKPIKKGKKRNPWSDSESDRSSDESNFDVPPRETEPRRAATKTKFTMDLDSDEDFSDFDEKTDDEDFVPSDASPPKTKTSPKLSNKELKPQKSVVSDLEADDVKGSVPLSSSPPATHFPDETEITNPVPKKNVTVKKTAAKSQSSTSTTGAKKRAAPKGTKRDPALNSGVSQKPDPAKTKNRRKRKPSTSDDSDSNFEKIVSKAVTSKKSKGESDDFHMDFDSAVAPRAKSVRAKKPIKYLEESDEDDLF
UniProt P05067, sequence (whole entry, looked up): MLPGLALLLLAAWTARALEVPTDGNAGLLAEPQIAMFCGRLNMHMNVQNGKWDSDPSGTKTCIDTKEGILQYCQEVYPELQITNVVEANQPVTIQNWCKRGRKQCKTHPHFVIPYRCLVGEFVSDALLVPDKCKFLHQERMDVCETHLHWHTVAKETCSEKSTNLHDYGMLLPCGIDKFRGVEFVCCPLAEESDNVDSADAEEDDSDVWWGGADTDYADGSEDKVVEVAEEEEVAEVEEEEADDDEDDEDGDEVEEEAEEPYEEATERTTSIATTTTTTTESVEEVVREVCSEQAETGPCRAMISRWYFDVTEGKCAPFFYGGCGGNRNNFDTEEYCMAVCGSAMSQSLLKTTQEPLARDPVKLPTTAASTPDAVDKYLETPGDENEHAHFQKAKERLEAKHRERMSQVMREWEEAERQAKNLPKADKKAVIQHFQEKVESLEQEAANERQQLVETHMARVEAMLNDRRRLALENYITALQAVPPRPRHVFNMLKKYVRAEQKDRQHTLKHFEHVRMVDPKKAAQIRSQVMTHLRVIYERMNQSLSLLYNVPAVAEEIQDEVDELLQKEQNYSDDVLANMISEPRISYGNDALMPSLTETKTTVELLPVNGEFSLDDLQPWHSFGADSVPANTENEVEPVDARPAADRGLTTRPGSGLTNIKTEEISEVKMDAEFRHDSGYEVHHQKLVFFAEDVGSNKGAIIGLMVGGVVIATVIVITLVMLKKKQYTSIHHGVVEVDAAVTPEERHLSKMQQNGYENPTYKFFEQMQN
UniProt Q56UN5, sequence (whole entry, looked up): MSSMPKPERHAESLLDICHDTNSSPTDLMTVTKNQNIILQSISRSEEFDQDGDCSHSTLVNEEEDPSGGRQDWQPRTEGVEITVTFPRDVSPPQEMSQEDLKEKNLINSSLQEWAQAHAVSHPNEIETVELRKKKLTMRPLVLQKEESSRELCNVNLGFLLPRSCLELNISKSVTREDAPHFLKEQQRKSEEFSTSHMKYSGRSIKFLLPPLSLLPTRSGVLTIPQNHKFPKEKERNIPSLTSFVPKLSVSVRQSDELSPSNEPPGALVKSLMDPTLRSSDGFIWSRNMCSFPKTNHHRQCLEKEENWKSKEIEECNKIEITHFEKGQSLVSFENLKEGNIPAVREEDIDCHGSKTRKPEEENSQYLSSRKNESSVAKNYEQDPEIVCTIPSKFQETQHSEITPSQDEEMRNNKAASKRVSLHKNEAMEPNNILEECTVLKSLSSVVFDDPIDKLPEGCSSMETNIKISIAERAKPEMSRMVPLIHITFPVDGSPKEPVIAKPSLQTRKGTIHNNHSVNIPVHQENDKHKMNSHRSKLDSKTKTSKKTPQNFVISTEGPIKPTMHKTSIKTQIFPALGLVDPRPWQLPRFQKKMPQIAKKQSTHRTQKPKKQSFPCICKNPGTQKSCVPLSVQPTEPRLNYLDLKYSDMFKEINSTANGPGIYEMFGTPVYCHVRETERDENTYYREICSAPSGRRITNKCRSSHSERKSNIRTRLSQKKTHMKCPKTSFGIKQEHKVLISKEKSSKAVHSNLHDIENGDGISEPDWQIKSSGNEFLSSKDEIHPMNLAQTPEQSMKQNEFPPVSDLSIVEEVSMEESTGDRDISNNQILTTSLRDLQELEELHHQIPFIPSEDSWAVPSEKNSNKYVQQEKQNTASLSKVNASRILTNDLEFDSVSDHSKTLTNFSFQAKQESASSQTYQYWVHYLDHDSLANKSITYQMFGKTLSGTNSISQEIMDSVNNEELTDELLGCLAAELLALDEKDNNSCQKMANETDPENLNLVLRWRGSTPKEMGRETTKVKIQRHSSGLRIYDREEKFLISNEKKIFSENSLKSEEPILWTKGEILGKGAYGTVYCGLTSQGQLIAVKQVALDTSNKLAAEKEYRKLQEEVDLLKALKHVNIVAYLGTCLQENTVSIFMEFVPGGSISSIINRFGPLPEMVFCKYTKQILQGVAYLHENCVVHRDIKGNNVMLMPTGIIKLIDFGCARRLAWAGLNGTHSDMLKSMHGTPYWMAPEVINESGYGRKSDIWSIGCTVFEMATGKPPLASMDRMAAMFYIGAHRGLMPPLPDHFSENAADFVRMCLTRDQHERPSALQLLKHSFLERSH
UniProt P63079, sequence (whole entry, looked up): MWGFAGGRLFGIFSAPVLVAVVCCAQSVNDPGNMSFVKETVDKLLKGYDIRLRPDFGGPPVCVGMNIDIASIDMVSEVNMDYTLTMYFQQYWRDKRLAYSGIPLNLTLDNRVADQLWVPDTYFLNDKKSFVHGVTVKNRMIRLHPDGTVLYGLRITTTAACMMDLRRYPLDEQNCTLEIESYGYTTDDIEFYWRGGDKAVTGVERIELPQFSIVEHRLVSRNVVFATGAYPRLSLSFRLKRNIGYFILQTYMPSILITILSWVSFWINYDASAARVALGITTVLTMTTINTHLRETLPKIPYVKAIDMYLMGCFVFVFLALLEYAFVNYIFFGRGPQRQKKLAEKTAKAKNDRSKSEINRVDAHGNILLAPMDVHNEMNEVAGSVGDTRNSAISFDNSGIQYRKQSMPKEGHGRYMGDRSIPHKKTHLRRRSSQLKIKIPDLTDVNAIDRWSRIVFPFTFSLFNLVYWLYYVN
UniProt P30191, sequence (whole entry, looked up): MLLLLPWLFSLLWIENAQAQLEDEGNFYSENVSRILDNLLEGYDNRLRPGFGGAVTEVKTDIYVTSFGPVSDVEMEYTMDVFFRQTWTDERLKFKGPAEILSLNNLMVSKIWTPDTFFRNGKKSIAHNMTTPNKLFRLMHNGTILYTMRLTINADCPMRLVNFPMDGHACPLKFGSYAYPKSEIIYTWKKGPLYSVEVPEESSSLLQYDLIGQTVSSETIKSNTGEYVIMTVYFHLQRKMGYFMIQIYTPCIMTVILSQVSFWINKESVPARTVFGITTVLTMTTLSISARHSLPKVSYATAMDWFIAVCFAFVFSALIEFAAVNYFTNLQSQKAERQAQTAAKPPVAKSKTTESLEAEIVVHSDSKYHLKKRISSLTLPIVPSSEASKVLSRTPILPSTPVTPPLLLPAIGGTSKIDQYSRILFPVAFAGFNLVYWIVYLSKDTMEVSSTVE

SMILES | target | test | test system | conditions | how to read | quantity | result
CN(C)C(=O)C(CCN1CCC(O)(c2ccc(Cl)cc2)CC1)(c1ccccc1)c1ccccc1 | Calcium-activated potassium channel subunit alpha-1, with LRRC26 γ1 subunit (KCNMA1, Homo sapiens, UniProt Q12791) | BK current, inhibitor, inside-out patch clamp | excised membrane patch | 1 µM, γ1 coexpressed, individual fits, together with: nominally 0 Ca2+ cytosolic | baseline: without loperamide | normalized Gmax | 0.635 ± 0.056
C=CC(=O)N1CCC(COCC(=O)N2CCN(c3nc(-c4cnc(N)nc4C(F)F)nc(N4CCOC[C@@H]4C)n3)CC2)CC1 | Mitogen-activated protein kinase kinase kinase 19 (MAP3K19, Homo sapiens, UniProt Q56UN5) | KINOMEscan | – | 1 µM | – | remaining binding | 63%
C[C@@H]1CCO[C@H]2Cn3cc(C(=O)NCc4ccc(F)cc4F)c(=O)c(O)c3C(=O)N12 | Solute carrier family 22 member 3 (SLC22A3, Homo sapiens, UniProt O75751) | transport | MDCK-II, transfected | 10 µM, together with: MPP+ 2 µM | – | inhibition | 0.849%
O=c1nc(SCc2cc(F)cc(C(F)(F)F)c2)nc(SCc2ccc3nc(Cl)ccc3c2)[nH]1 | DNA topoisomerase 2-alpha (TOP2A, Homo sapiens, UniProt P11388) | ATPase activity | – | 15.6 µM, together with: ATP 0.1 mM | – | ATP hydrolysis rate | 0.788 µM/min and 0.778 µM/min
Cc1nn(-c2nc3ccccc3[nH]2)c(O)c1C(c1ccccc1C(=O)O)c1c(C)nn(-c2nc3ccccc3[nH]2)c1O | Cyclic GMP-AMP synthase (CGAS, Homo sapiens, UniProt Q8N884) | enzyme activity, inhibitor, pyrophosphatase-coupled | – | 50 µM, 1.5 h, together with: HT-DNA | – | inhibition | 94.4%
O=C(O[C@@H]1Cc2c(O)cc(O)cc2O[C@@H]1c1cc(O)c(O)c(O)c1)c1cc(O)c(O)c(O)c1 | Amyloid-beta precursor protein (APP, Homo sapiens, UniProt P05067) | binding, 1H NMR titration | – | fivefold excess, 4 °C, amyloid-beta 10 µM | – | monomer signal loss | ≤ 31%
Nc1nc2c(ncn2[C@@H]2O[C@H](COP(=O)(O)O)[C@@H](O)[C@H]2O)c(=O)[nH]1 | GUK1 (Homo sapiens, UniProt Q16774, S37A) | enzyme activity, NADH-coupled | – | 62.5 µM | – | reaction rate | -0.55 s⁻¹ and 0.26 s⁻¹ and -1.76 s⁻¹
CC[C@H](C)[C@H](NC(=O)[C@H](Cc1ccccc1)NC(=O)[C@H](CCC(=O)O)NC(=O)[C@H](CCCNC(=N)N)NC(=O)[C@H](C)NC(=O)[C@H](C)NC(=O)[C@H](CCC(N)=O)NC(=O)[C@H](CCC(=O)O)NC(=O)[C@H](CCC(=O)O)NC(=O)[C@H](CC(C)C)NC(=O)[C@H](Cc1ccc(O)cc1)NC(=O)[C@H](CO)NC(=O)[C@H](CO)NC(=O)[C@@H](NC(=O)[C@H](CC(=O)O)NC(=O)[C@H](CO)NC(=O)[C@@H](NC(=O)[C@H](Cc1ccccc1)NC(=O)[C@@H](NC(=O)CNC(=O)[C@H](CCC(=O)O)NC(=O)[C@H](C)NC(=O)CCc1cnc[nH]1)[C@@H](C)O)[C@@H](C)O)C(C)C)C(=O)N[C@@H](C)C(=O)N[C@@H](Cc1c[nH]c2ccccc12)C(=O)N[C@@H](CC(C)C)C(=O)N[C@H](C(=O)N[C@@H](CCCNC(=N)N)C(=O)NCC(=O)N[C@@H](CCCNC(=N)N)C(=O)N[C@@H](CCCCNC(=O)COCCOCCNC(=O)COCCOCCNC(=O)CC[C@H](NC(=O)CCCCCCCCCCCCCCCCC(=O)O)C(=O)O)C(=O)NCC(=O)NCC(=O)N[C@@H](CO)C(=O)N[C@@H](CCCCNC(=O)[C@H](CCCCNC(=O)[C@H](CCCCNc1c(NCCCCCN(O)C(=O)CCC(=O)NCCCCCN(O)C(=O)CCC(=O)NCCCCCN(O)C(C)=O)c(=O)c1=O)Nc1c(NCCCCCN(O)C(=O)CCC(=O)NCCCCCN(O)C(=O)CCC(=O)NCCCCCN(O)C(C)=O)c(=O)c1=O)NC(=O)[C@H](CCCCNc1c(NCCCCCN(O)C(=O)CCC(=O)NCCCCCN(O)C(=O)CCC(=O)NCCCCCN(O)C(C)=O)c(=O)c1=O)Nc1c(NCCCCCN(O)C(=O)CCC(=O)NCCCCCN(O)C(=O)CCC(=O)NCCCCCN(O)C(C)=O)c(=O)c1=O)C(=O)O)C(C)C | Glucagon-like peptide 1 receptor (GLP1R, Homo sapiens, UniProt P43220) | agonist, CRE luciferase reporter | BHK cells | Zr-loaded DFO conjugate, together with: 0% HSA | baseline: parent peptide | fold potency loss | 3.8
COc1cccc(-n2nc3c4cc(Cl)ccc4[nH]cc-3c2=O)c1 | Gamma-aminobutyric acid receptor subunit alpha-6/beta-3, with delta subunit (Gabra6/Gabrb3, Rattus norvegicus, UniProt P30191+P63079) | ion current, modulator, two-electrode voltage clamp | – | 30 µM, α6β3δ receptor, together with: GABA EC3-10 | – | efficacy | 180 ± 8.7%
N#Cc1ccc(-c2ccc(Cn3cc(-c4ccc(-c5nc6cc(-c7ccccc7)ccn6c5Nc5ccc(C(=O)O)cc5)cc4)nn3)cc2)nc1 | Tyrosyl-DNA phosphodiesterase 2 (TDP2, Homo sapiens, UniProt O95551) | – | – | – | baseline: TDP1 IC50 over TDP2 IC50 | selectivity ratio | 8
